Results gathered from unrelated publications.
Numbers after ± are the reported error.
4'-phosphopantetheinyl transferase PptT: 4'-phosphopantetheinyl transferase PptT (Mycobacterium tuberculosis, UniProt O33336)
UniProt O33336, sequence (whole entry, looked up): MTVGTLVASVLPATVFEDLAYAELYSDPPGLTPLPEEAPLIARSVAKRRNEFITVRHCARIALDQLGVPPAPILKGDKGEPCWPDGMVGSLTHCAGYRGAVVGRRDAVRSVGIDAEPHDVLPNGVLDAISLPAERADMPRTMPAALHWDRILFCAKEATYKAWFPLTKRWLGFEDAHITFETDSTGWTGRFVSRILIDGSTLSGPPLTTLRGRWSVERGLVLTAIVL
2,3-bisphosphoglycerate-independent phosphoglycerate mutase: 2,3-bisphosphoglycerate-independent phosphoglycerate mutase (Wuchereria bancrofti, UniProt B1P0R4)
gpmI: 2,3-bisphosphoglycerate-independent phosphoglycerate mutase (gpmI, Mycoplasma pneumoniae, UniProt P75167)
UniProt P75167, sequence (whole entry, looked up): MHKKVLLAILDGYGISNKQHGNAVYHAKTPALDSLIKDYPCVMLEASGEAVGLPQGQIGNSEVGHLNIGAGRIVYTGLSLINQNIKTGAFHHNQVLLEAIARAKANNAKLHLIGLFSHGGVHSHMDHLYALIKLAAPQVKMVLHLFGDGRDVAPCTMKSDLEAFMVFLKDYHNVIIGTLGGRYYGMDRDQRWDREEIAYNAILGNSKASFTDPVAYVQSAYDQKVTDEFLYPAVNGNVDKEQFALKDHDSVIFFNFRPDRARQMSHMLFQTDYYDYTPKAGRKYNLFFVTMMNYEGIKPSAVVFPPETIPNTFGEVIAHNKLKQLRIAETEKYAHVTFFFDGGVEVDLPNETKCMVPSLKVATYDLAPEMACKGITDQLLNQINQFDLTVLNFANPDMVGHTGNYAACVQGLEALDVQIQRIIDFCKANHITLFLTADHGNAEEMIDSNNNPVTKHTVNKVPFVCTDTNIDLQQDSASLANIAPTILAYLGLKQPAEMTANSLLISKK
UniProt P21554, sequence (whole entry, looked up): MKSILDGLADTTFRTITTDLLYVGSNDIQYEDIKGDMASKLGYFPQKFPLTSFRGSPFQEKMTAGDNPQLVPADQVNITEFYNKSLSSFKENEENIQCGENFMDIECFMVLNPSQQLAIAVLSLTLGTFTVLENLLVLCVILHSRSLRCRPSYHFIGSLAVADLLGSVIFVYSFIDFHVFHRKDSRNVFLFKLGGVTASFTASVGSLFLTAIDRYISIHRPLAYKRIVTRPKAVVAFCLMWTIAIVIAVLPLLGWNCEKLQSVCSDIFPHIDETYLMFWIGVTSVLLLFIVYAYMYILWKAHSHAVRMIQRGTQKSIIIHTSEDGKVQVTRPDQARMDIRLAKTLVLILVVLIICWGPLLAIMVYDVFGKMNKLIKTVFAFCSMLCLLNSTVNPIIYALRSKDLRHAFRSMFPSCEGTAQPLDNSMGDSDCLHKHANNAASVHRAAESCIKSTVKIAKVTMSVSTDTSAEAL
UniProt P34972, sequence (whole entry, looked up): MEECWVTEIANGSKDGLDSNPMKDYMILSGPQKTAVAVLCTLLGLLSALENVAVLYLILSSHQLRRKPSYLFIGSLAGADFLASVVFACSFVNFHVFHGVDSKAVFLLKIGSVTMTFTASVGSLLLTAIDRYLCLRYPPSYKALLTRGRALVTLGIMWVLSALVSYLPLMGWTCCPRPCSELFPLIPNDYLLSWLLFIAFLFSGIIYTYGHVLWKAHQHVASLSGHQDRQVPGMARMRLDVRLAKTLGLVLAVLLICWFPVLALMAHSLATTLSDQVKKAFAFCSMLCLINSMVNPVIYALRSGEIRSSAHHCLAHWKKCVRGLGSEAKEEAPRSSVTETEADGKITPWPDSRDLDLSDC
UniProt P01902, sequence (whole entry, unmodified, looked up): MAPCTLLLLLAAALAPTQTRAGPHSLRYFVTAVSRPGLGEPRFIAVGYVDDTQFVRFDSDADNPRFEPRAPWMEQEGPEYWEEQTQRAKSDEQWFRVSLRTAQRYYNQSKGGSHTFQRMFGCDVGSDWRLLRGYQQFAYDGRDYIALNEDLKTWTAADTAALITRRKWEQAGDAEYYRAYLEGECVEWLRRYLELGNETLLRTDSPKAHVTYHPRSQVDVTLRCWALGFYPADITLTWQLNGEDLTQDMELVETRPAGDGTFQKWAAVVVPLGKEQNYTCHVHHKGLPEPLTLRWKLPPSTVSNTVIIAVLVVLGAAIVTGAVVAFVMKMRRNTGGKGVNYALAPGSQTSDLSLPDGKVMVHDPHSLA
UniProt P9WFK7, sequence (whole entry, looked up): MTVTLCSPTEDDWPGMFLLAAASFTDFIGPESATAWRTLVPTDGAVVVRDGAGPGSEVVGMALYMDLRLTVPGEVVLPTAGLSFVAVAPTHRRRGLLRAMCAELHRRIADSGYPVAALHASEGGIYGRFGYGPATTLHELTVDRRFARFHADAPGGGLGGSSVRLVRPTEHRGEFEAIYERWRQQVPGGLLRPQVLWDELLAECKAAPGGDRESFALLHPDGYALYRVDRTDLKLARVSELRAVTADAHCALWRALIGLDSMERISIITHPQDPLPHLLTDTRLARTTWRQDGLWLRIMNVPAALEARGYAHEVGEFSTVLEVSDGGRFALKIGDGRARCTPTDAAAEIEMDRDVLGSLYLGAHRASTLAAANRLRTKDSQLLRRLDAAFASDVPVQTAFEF
UniProt P33033, sequence (whole entry, looked up): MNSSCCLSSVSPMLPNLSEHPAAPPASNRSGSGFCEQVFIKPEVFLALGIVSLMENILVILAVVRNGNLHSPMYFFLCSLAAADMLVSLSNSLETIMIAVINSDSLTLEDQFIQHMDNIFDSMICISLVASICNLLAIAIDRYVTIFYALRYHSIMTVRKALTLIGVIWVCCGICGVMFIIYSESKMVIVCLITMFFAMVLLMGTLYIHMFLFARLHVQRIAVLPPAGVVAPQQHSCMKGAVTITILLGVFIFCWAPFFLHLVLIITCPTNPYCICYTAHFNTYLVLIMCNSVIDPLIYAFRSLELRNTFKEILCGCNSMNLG
UniProt P33261, sequence (whole entry, looked up): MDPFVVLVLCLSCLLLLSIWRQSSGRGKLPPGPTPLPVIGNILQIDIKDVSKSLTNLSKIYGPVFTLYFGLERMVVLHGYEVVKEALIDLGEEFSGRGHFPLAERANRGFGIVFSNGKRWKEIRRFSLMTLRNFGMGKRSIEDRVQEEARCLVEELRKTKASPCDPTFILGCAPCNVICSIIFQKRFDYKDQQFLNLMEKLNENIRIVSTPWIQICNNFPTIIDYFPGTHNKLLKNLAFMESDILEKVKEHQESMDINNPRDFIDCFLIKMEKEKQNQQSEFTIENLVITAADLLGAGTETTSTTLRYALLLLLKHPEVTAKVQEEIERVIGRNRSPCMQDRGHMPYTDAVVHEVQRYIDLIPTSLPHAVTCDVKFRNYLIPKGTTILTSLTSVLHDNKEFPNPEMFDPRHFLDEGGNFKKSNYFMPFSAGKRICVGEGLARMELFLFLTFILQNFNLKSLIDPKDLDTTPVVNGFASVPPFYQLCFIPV

Compound = Cc1nc(=O)c2cc(CN(C)c3ccc(C(=O)NCC(=O)O)s3)ccc2[nH]1; target or system = 4'-phosphopantetheinyl transferase PptT; test = enzyme activity, inhibitor, fluorescence polarization; conditions = enzyme 100 nM; quantity = IC50; value = 210 nM
Compound = CC[C@H](C)[C@H](NC(=O)[C@H](CS)NC(=O)[C@H](CC(C)C)NC(=O)[C@H](C)NC(=O)[C@H](CCC(N)=O)NC(=O)[C@H](CC(C)C)NC(=O)[C@H](CCSC)NC(=O)[C@H](Cc1ccc(O)cc1)NC(=O)[C@@H](N)CO)C(=O)N1CCC[C@H]1C(=O)O; target or system = H-2 class I histocompatibility antigen, K-D alpha chain, 29 (H2-K1, Mus musculus, UniProt P01902); test = binding, competitor, radioligand competition; conditions = purified MHC, mutant peptide, together with: radiolabeled standard peptide; quantity = IC50; value = 67 nM
Compound = COc1ccc(C[C@@H]2NC(=O)[C@H](Cc3ccc(O)cc3)NC(=O)[C@H](CO)NC(=O)[C@H](CC(=O)O)NC(=O)[C@H](Cc3ccc(O)cc3)NC(=O)[C@H](Cc3c[nH]c4ccccc34)NC(=O)[C@@H](Cc3ccc(O)cc3)NC(=O)CSC[C@@H](C(N)=O)NC(=O)[C@H]([C@@H](C)O)NC(=O)[C@H](Cc3ccc(O)cc3)NC(=O)[C@H](CCC(N)=O)NC(=O)[C@H](C)NC(=O)[C@H]([C@@H](C)O)NC(=O)CNC(=O)[C@@H]3CCCN3C(=O)[C@H](Cc3ccc(O)cc3)NC2=O)cc1; target or system = 2,3-bisphosphoglycerate-independent phosphoglycerate mutase; test = biochemical; quantity = AC50; value = 26900 nM
Compound = CC(C)[C@H](N)C(=O)N[C@@H](Cc1ccc(O)cc1)C(=O)N[C@@H](CCCCN)C(=O)N[C@H](C(=O)N[C@@H](CCCCN)C(=O)N[C@H](C(=O)N[C@@H](CCCCN)C(=O)N[C@H](C(=O)N[C@@H](CCCCN)C(=O)N[C@H](C(=O)N[C@@H](CCCCN)C(=O)N[C@H](C(=O)N[C@@H](CCCCN)C(=O)N[C@H](C(=O)N[C@@H](CCCCN)C(=O)N[C@H](C(=O)N[C@@H](CCCCN)C(=O)N[C@H](C(=O)O)[C@@H](C)O)C(C)C)[C@@H](C)O)C(C)C)[C@@H](C)O)C(C)C)[C@@H](C)O)C(C)C; test = binding, SPR two-state model; system = rVλ6Wil fibrils; conditions = 300 nM; quantity = kd2; value = 0.0028 s⁻¹
Compound = CC(=O)N[C@@H](CCCNC(=N)N)C(=O)N[C@@H](CCCNC(=N)N)C(=O)N[C@H](C(=O)N1Cc2ccccc2C[C@H]1C(N)=O)[C@@H](c1ccccc1)c1c[nH]c2ccccc12; target or system = Melanocortin receptor 3 (Mus musculus, UniProt P33033); test = cAMP, agonist, AlphaScreen; quantity = EC50; value = > 100000 nM
Compound = CC(C)[C@@H]1NC(=O)[C@H](CO)NC(=O)[C@H](Cc2c[nH]c3ccccc23)NC(=O)[C@H](CCC(=O)O)NC(=O)[C@H](CC(=O)O)NC(=O)[C@H](Cc2ccc(O)cc2)NC(=O)[C@H](Cc2ccc(O)cc2)NC(=O)[C@H](Cc2c[nH]c3ccccc23)NC(=O)[C@H](Cc2c[nH]c3ccccc23)NC(=O)[C@H](CC(=O)O)NC(=O)CNC(=O)[C@H](CO)NC(=O)[C@@H](Cc2ccc(O)cc2)NC(=O)CSC[C@@H](C(N)=O)NC(=O)CNC(=O)[C@H](Cc2ccccc2)NC(=O)[C@H](C)NC1=O; target or system = gpmI; test = biochemical; quantity = AC50; value = 25700 nM
Compound = CCCCCn1cc(C(=O)c2cccc3ccccc23)c2ccccc21; target or system = Cannabinoid receptor 1 (CNR1, Homo sapiens, UniProt P21554); test = β-arrestin recruitment, agonist, BRET; quantity = EC50; value = 110 nM
Compound = C#CCN(Cc1ccc2nc(C)[nH]c(=O)c2c1)c1ccc(C(=O)N[C@@H](CCC(=O)O)C(=O)O)cc1; target or system = 4'-phosphopantetheinyl transferase PptT; test = enzyme activity, inhibitor, fluorescence polarization; conditions = enzyme 100 nM; quantity = IC50; value = 50 nM
Compound = CC(C)[C@@H]1NC(=O)[C@H](CCCNC(=N)N)NC(=O)[C@H](Cc2ccc(O)cc2)NC(=O)[C@H](CO)NC(=O)[C@H](Cc2ccc(O)cc2)N(C)C(=O)[C@H](CC(N)=O)NC(=O)CNC(=O)[C@H](Cc2ccc(O)cc2)N(C)C(=O)[C@H](Cc2ccccc2)N(C)C(=O)[C@H](CC(=O)O)NC(=O)[C@H](Cc2ccc(O)cc2)NC(=O)[C@H](Cc2ccccc2)N(C)C(=O)[C@H](Cc2ccc(O)cc2)N(C)C(=O)[C@H](Cc2ccc(O)cc2)NC(=O)CSC[C@@H](C(N)=O)NC(=O)[C@@H]2CCCN2C1=O; target or system = 2,3-bisphosphoglycerate-independent phosphoglycerate mutase; test = biochemical; quantity = AC50; value = 309 nM
Compound = CC(C)(C)C1CCc2c(sc3nc(SCCCN4CCCCC4)nc(N)c23)C1 (racemic); target or system = N-acetyltransferase Eis (eis, Mycobacterium tuberculosis, UniProt P9WFK7); test = inhibitor; quantity = IC50; value = 6600 ± 1200 nM
Compound = C#CCN(Cc1ccc2nc(N)nc(N)c2c1)c1ccc(C(=O)N[C@@H](CCC(=O)O)C(=O)O)cc1; target or system = 4'-phosphopantetheinyl transferase PptT; test = enzyme activity, inhibitor, fluorescence polarization; conditions = enzyme 100 nM; quantity = IC50; value = > 25000 nM
Compound = CCCCCn1cc(C(=O)c2ccc3c(c2)CC(C)(C)C3)c2ccccc21; target or system = Cannabinoid receptor 2 (CNR2, Homo sapiens, UniProt P34972); test = G protein activation, agonist, BRET; quantity = EC50; value = 447 nM
Compound = CC(C)[C@@H]1NC(=O)[C@H](CCC(N)=O)NC(=O)[C@@H](Cc2ccc(O)cc2)NC(=O)CSC[C@@H](C(N)=O)NC(=O)[C@H](CC(=O)O)NC(=O)[C@H](CCC(=O)O)NC(=O)[C@H](Cc2c[nH]c3ccccc23)NC(=O)[C@@H]2CCCN2C(=O)[C@H](CO)N(C)C(=O)[C@H](C)NC(=O)[C@H](Cc2c[nH]c3ccccc23)NC(=O)[C@H](Cc2c[nH]c3ccccc23)NC(=O)[C@H](C(C)C)NC(=O)[C@H]([C@@H](C)O)NC1=O; target or system = gpmI; test = biochemical; quantity = AC50; value = 4.79 nM
Compound = CCCCCc1cc(O)c2c(c1)OC(C)(C)C1CCC(C)=CC21 (single isomer, unassigned; (-)); target or system = Cytochrome P450 2C19 (CYP2C19, Homo sapiens, UniProt P33261); test = enzyme activity, inhibitor; system = human liver microsomes; conditions = pH 7.4, unbound, fu,inc corrected, together with: omeprazole; quantity = Ki; value = 210 ± 82 nM
Compound = CCOC(=O)CC[C@@H](NC(=O)c1ccc(N(C)Cc2ccc3[nH]c(C)nc(=O)c3c2)s1)C(=O)OCC; target or system = 4'-phosphopantetheinyl transferase PptT; test = enzyme activity, inhibitor, fluorescence polarization; conditions = enzyme 100 nM; quantity = IC50; value = 1190 nM
Compound = O=S(=O)(O)CCOCC1CSSCC(COCCS(=O)(=O)O)SS1 (centres unmarked); target or system = Response regulator PhoP (Mycobacterium tuberculosis, UniProt P71814); test = binding, LSPR; quantity = Kd; value = 14500 ± 100 nM
Compound = N=C(N)NCCC[C@@H]1NC(=O)[C@@H](Cc2ccc(O)cc2)NC(=O)CSC[C@@H](C(=O)N2CCC[C@H]2C(=O)N[C@@H](CCCCN)C(=O)N[C@@H](CS)C(N)=O)NC(=O)[C@H](CCC(=O)O)NC(=O)[C@H](Cc2ccc(O)cc2)NC(=O)[C@H](CCCCN)NC(=O)[C@H](Cc2ccc(O)cc2)NC(=O)[C@H](Cc2ccc(O)cc2)NC(=O)[C@H](CCC(=O)O)NC(=O)[C@H](Cc2ccc(O)cc2)NC1=O; target or system = 2,3-bisphosphoglycerate-independent phosphoglycerate mutase; test = biochemical; quantity = AC50; value = 20400 nM
Compound = CC1=NN(c2ccc(C(=O)O)cc2)C(=O)C1=Cc1ccc(-c2cc(C)c(C)cc2[N+](=O)[O-])o1; target or system = 4'-phosphopantetheinyl transferase PptT; test = enzyme activity, inhibitor, fluorescence polarization; conditions = enzyme 100 nM; quantity = IC50; value = 3400 nM
Compound = CN1C(=O)[C@H](Cc2ccc(O)cc2)NC(=O)CNC(=O)[C@H](Cc2ccc(O)cc2)NC(=O)[C@H](CCC(=O)O)NC(=O)[C@H](Cc2ccc(O)cc2)N(C)C(=O)[C@H](Cc2ccc(O)cc2)N(C)C(=O)[C@H](CCC(N)=O)NC(=O)[C@H](Cc2c[nH]c3ccccc23)NC(=O)[C@H](Cc2ccc(O)cc2)NC(=O)[C@@H](Cc2ccc(O)cc2)NC(=O)CSC[C@@H](C(N)=O)NC(=O)[C@H](CCCCN)NC(=O)[C@@H]1Cc1ccc(O)cc1; target or system = 2,3-bisphosphoglycerate-independent phosphoglycerate mutase; test = biochemical; quantity = AC50; value = 468 nM
Compound = Cc1nc(=O)c2cc(CN(C)c3cccc(C(=O)N[C@@]4(C(=O)O)CCC[C@H](C(=O)O)C4)c3)ccc2[nH]1; target or system = 4'-phosphopantetheinyl transferase PptT; test = enzyme activity, inhibitor, fluorescence polarization; conditions = enzyme 100 nM; quantity = IC50; value = 440 nM
